Assay results pooled from the literature.
Each numbered part is a random draw from the data of one study; scales do not carry over between parts.

Block 1
Target: RING finger protein unkempt homolog, zinc fingers 1-6, GST-SBP tag (UNK, Homo sapiens, UniProt Q9C0B0, residues 30-357)
Method: RNA Bind-n-Seq
Form: RNA
Matrix: in vitro
Tested at: not given
Setting: RNA with constant flanks, ends assumed
Relative to: input RNA pool
Reading: higher = stronger binding
Construct (chain): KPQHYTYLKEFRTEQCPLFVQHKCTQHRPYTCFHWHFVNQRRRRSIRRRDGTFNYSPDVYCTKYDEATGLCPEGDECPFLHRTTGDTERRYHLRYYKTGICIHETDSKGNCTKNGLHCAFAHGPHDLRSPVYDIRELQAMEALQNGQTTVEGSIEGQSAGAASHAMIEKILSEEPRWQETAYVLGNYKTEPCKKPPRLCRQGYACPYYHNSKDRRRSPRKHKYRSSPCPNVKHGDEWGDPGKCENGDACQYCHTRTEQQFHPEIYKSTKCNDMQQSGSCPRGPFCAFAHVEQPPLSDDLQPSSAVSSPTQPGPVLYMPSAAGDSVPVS
| Oligonucleotide | bound/input enrichment |
| --- | --- |
| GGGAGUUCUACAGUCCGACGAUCAAAGGAAGUCUAAACAAAGCAAUAGAAGAUUUUGAGCUCGCAUUAGAAAACUGCCCAACUCACCGGAAUGCAAGGAAAUAUCUCUGCCAGACACUUGUAGAAAGGGGAGGGCAGUUAGAACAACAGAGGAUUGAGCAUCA | 2.19 ratio |
| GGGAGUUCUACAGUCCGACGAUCUCUAUUCGAAACCCCAAAGCCCGAGCCGUAACGUUAAGGGUUAAACUUUCCAGUUUGAAUUCCGACAAUCAUGCCAAGAAAAAACUCAUUAAGCUUGUAGGAGAGCGGUACUGCAAGGCCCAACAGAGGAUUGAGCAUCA | 0.192 ratio |
| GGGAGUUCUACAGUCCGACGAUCUGUGUGGCCAGAGCUUUCACAGGAGGAAAGCGGGCUGCUGAAUUUAGUCACUGAUCUCUAUCCGCUGUGGCCUAAGGCUAUGCUGAGGUUUAUAUCCCAUUUGUACUGUUGCAGCUCAAACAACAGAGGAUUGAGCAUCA | 0.248 ratio |
| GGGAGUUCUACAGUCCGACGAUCAUCAGAAAUCUUUUUAGAGAAGCAAAAGCAAAUGCUCCUUGUGUUAUAUUCAUCGAUGAAUCCGAUUCUGUUGGUGGAAAGAGAAUUGAAUCUCCAAUGCACCCGUAUUCAAGGCAGACGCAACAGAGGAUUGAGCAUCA | 0.514 ratio |
| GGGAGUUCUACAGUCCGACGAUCUCUUUCCAAAGCAAUGUCUAAAAACUCUUUUUUUUAAAGUAACAGUUUGGUAUGUUUAUUGCCGAUAAAUUAUUUUUGAGGCCUUCAUUUUAGCUAAGUUUAGAAUUUAUAUUAGGCAACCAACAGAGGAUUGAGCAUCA | 8.17 ratio |
| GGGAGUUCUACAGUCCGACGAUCAACGGAGAACUGGAAGAUAAGCCUCCAGCACCUCCUGUGCGAAUGAGCAGCACCAUCUUCCGCACUGGAGGCAAAGACCCUUUGUCAGCCAAUCACAGUUUGAAACCUUUGCCCUCUGUUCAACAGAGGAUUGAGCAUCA | 0.116 ratio |
| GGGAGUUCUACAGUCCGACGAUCUGUUUUGGCUAUUUACAACACUAGUUCUGCUCUUCCAUAAAAAUCGCAUUUUAUCUGUAUCCGCCGAUCUUCACCAAACUCUUAAGCAAUACAAUAUUCCCUCUAAUGCUUUACACACGUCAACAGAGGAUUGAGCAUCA | 1.08 ratio |
| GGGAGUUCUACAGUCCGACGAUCCCCAAUGAGUUGCCAUAUAAUGAUUACUUUGAGUAUUUUGGACCAGACUUCAAACUGCAUAUCCGUCCUUCAAACAUGACAAACCAGAACACUCCAGAAUAUAUGGAAAAGAUAAAACAGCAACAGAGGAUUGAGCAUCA | 0.197 ratio |
| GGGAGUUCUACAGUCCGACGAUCCCUAAUGGUGCAACCUUGCUGGUUGGUGGUUUUGGGCUGUGUGGUAUUCCAGAGAAUCUUACCGGAGCUUUACUGAAGACUGGAGUAAAAGAUCUAACUGCAGUCAGCAACAAUGCAGGGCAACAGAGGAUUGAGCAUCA | 0.0715 ratio |
| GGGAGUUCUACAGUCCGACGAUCGAUGUUCUGCCUACUCAGAUCUAUCCUCUCCCCAAGCAGCAGAACCUUCCCAAGAGACCUACCCGUUUGCCUUUGAACACCAAAAAUUCAACAAAAGAGCCCCGGCUAAAAUUUGGCAGCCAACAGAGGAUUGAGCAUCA | 0.418 ratio |
| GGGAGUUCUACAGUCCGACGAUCGGGCUGUACAGGUCACCCUCUCCCACGGUGCCCGCCGACCCUGGGGUGUCUGUCUCUCUGCGGGCCGGAGGGCGCCAUGGGCGCGCCGCCGCCCGCUCCCCGCAGCCGCCUUUGCGGAGCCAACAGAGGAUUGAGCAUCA | 0.197 ratio |

Block 2
Target: RNA binding protein fox-1 homolog 2, RRM domain, GST-SBP tag (RBFOX2, Homo sapiens, UniProt O43251-10, residues 100-194)
Method: RNA Bind-n-Seq
Form: RNA
Matrix: in vitro
Tested at: 365 nM
Setting: natural RNA segment, single round, ends assumed
Relative to: no-protein control
Reading: higher = stronger binding
Construct (chain): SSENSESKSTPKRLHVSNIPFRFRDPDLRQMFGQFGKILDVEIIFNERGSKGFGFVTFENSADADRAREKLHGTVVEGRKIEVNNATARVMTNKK
| Oligonucleotide | RBNS enrichment (R) |
| --- | --- |
| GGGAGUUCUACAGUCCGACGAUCUUGGGAAGAACUGAUUUCUUUUUUUAAAUCAAAGUUUUGUAAAUAGAUCUUACUUCUGAAUUUGAAUCGGUGGAAGACCUCAGUUCACAUGCUAAGUCAAAACGGCCCUUUGGAAUUCUCGGGUGCCAA | 0.375 |
| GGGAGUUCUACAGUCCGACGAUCUGAUUCAGUUCAAAAUUAAUGCAAAUCUUUCAAAACUGGGUUUCUGAUACUUGUGGAUGUUUUUCUUCAUUAGAUAAGAAUGUAUUACCAUUAAAUCCAUUAGUAUUACAUGGAAUUCUCGGGUGCCAA | 0.732 |
| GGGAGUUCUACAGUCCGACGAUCCUUGCCUCCCAGGGAUUUGUGAGCCUUUCCUAGAAGGUCCUGUGCUCUCCUCCUUCUGUCCCCUCCCCUACUGUCUGCUGCCCCUUCCUGGGGAGUUGGUGCUUUCUUUUUGGAAUUCUCGGGUGCCAA | 1.26 |
| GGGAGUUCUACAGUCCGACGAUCGUAGACACUUCUGGGACGUUGCUGCGCAUGCAGCAUCGGAAGGCAGCACAGGCGCUGGCAGUGGAUACAGCAGGCCUGUCUAGUCUCCCACAGUGGGUUUGGCUGAUUGUUGGAAUUCUCGGGUGCCAA | 0.75 |
| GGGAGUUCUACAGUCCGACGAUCCUAAUGCAUAGAGACACUAAAACCCACACCACAUUUUGUGGGAAAUGAGGAUCCUGAUCCUCUUUUGUCCUCUCCAGGUAGUCUCGCAGGUUAUGCAGCUUAAGUUCAGUUGGAAUUCUCGGGUGCCAA | 0.452 |
| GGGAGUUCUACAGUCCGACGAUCUAAGGUGGUAGUAUAAAUGGAAACUUUUUGAAGUAGACCAGAUAUGGGCUACUUGUGACUAGACUUUUAAACUUUGCUCUUUCAAGCAGAAGCCUGGUUUCUGGGAGAACUGGAAUUCUCGGGUGCCAA | 0.282 |
| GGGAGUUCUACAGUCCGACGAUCGACCUUCAGUCCAGGACAGACCCUGUCAUGGCUUCUUGCUGUCUUACCCUUCUCACUCACCAGGCCCACAGUCGCCUGCACUCAGUGCUGUUUGUAACACAUCUGUUAUUUGGAAUUCUCGGGUGCCAA | 0.715 |
| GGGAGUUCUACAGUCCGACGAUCAAUUGAGGCAUUUUAGUGGACAAUAUCAUAAUUUCUAUCAUGGAAAGUGUAUUUAAUGUCUGUGUCAUGUAUAUGCCAAAAUUUUAAUCCCCUAUAAAUAAAACAUGUGUUGGAAUUCUCGGGUGCCAA | 0.732 |
| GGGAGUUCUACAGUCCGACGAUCGGAUAUGAUGGAAGAAGUGCUUGAAAGAGAAUUUUAGCAGAUGGUACUUUUCUCAGUGACCUCUGGAAUAAAAGAACUGACUUUUGAUAGUUUUAAAAUUAAUCUUUGCAUGGAAUUCUCGGGUGCCAA | 2.45 |

Block 3
Target: Sal-like protein 4, full length isoform A (SALL4, Homo sapiens, UniProt Q9UJQ4, residues 1-1053)
UniProt Q9UJQ4, sequence (whole entry, looked up): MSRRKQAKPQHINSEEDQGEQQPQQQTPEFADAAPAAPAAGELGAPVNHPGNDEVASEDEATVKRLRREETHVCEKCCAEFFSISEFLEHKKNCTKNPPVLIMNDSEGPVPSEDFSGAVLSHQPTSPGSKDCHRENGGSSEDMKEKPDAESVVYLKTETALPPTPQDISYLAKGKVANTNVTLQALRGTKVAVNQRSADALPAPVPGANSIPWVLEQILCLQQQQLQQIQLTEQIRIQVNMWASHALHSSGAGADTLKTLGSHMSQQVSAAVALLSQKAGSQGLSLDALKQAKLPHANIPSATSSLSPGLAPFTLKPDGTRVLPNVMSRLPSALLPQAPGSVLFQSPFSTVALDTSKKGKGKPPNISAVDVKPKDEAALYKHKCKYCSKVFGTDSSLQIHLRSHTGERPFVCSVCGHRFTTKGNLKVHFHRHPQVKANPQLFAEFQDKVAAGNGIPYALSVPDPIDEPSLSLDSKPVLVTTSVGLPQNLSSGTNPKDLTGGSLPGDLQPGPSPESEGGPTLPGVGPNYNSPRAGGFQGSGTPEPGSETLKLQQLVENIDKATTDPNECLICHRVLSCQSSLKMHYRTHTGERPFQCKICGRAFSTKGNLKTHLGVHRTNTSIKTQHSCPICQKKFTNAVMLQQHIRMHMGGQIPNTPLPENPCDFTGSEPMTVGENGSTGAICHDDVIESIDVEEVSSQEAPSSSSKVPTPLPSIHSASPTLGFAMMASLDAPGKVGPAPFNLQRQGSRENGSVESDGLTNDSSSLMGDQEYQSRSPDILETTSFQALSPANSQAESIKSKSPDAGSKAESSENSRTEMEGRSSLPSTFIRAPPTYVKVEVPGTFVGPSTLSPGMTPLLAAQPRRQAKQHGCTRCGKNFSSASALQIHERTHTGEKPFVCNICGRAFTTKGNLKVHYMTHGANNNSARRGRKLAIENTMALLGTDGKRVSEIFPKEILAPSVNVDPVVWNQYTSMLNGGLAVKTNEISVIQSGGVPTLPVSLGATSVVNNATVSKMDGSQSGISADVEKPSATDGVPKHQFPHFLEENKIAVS
Method: universal PBM
Form: double-stranded DNA, one strand shown
Matrix: in vitro
Tested at: 600 nM
Setting: 8-mer, flanks averaged, mean of replicates
Reading: higher = stronger binding
| Oligonucleotide | E-score |
| --- | --- |
| AGTGTAAG | 0.14 |
| GGCTTGTA | -0.0369 |
| CGCTATAC | 0.0334 |
| ATTTTTCA | 0.301 |
| GTCGGCAA | -0.257 |
| CATAGATC | 0.0413 |
| GAGACTGA | -0.115 |
| AGCGACAC | -0.0982 |
| AGAGTTGA | 0.0122 |
| AAAAGTGG | 0.124 |
| CACGGTGG | -0.225 |
| CCGAACCA | -0.11 |
| CCACGTGC | -0.257 |
| CCTCAGTC | -0.232 |
| GTCAGCAC | -0.119 |
| GAATACAC | 0.197 |
| AGCGGCAT | -0.118 |
| CTAGCCAC | -0.255 |
| AACGTCGT | -0.0869 |
| CTGCCGAC | -0.252 |

Block 4
Target: Transcription factor Sp1 (SP1, Homo sapiens, UniProt P08047, residues 1-785, full length assumed)
UniProt P08047, sequence (whole entry, looked up): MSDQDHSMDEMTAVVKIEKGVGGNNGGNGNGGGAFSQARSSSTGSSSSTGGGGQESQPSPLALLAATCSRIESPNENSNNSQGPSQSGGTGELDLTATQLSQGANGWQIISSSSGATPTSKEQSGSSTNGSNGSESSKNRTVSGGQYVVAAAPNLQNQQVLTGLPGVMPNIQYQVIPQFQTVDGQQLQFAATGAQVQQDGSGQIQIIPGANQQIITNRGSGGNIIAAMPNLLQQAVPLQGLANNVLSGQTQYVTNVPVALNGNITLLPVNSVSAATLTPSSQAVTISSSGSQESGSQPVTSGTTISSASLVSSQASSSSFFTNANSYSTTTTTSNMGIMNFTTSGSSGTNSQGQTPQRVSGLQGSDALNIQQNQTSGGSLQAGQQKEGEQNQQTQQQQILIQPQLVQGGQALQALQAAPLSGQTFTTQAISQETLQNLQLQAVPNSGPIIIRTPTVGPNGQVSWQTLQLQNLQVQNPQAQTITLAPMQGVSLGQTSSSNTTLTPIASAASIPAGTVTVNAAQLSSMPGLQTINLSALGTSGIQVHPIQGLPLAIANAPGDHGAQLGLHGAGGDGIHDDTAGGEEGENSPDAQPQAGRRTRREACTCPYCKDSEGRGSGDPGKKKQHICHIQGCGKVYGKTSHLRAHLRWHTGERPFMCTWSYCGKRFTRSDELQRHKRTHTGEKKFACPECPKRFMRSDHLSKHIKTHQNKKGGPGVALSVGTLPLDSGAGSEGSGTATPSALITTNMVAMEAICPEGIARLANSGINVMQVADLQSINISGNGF
Method: protein-binding microarray
Form: double-stranded DNA, one strand shown
Matrix: in vitro
Tested at: not given
Setting: k-mer, scored over probes, only values ≥0.25
Reading: higher = stronger binding
| Oligonucleotide | E-score |
| --- | --- |
| CTCCACCC | 0.341 |
| TGGGGTAA | 0.361 |
| ATGTGTAA | 0.299 |
| CCCCTTAC | 0.29 |
| AGTATCTA | 0.311 |
| ACACTGTA | 0.275 |
| CCCCAAGC | 0.263 |
| CAACGTTG | 0.268 |
| ACCCCACT | 0.357 |
| AACTGTAG | 0.257 |
| AGGTAAAG | 0.282 |
| ATATGGGC | 0.363 |
| ATTGACCA | 0.267 |
| ACATAGAA | 0.251 |
| ACTACACA | 0.264 |
| AAGGGGAG | 0.318 |
| CTCCCCGC | 0.377 |
| GGCGGGGA | 0.475 |
| GGGTTGCA | 0.263 |
| GGCGTATA | 0.261 |

Excerpt of the above (block 4):
| Oligonucleotide | E-score |
| --- | --- |
| ATTGACCA | 0.267 |
| ACATAGAA | 0.251 |
| ACTACACA | 0.264 |
